{"data": "Experimental data collected from several papers", "note": "Parts stem from different laboratories: compare values within a part only."}
{"data": "Series 1", "target": "Histone acetyltransferase KAT6A, both winged helices, GST fusion (KAT6A, Homo sapiens, UniProt Q92794, residues 1-181)", "method": "protein binding microarray", "form": "double-stranded DNA, one strand shown", "sample": "in vitro", "tested at": "not given", "setting": "8-mer, flanks averaged, mean of 2 arrays, mostly near background", "relative to": "not given", "direction": "higher = stronger binding", "Construct (chain)": "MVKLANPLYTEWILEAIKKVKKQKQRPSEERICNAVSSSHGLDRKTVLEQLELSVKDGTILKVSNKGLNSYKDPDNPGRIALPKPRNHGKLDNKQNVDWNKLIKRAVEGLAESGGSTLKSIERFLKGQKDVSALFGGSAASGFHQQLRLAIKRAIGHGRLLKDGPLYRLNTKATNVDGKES"}
{"Oligonucleotide": "AAACCTTC", "E-score": -0.23}
{"Oligonucleotide": "AACAAGCC", "E-score": -0.00152}
{"Oligonucleotide": "TACAAATA", "E-score": 0.0156}
{"Oligonucleotide": "CTTCGTCA", "E-score": -0.117}
{"Oligonucleotide": "ATCTATCG", "E-score": 0.00178}
{"Oligonucleotide": "AGTATGAG", "E-score": -0.126}
{"Oligonucleotide": "CGAAAGGA", "E-score": 0.087}
{"data": "Series 2", "target": "Interferon regulatory factor 7, full length, phosphomimetic (IRF7, Homo sapiens, UniProt Q92985, residues 1-503, S471D/S472D/S475D/S476D/S477D/S483D/S484D/S487D)", "method": "protein-binding microarray", "form": "double-stranded DNA, one strand shown", "sample": "in vitro", "tested at": "2200 nM top", "setting": "60-bp whole probe", "with": "salmon DNA 0.4 mg/ml", "relative to": "random background probes", "direction": "higher = stronger binding", "shared flanks, not repeated": "GCCTAGCAC … GTCTTGATTCGCTTGACGCTGCTG", "Residues (chain)": "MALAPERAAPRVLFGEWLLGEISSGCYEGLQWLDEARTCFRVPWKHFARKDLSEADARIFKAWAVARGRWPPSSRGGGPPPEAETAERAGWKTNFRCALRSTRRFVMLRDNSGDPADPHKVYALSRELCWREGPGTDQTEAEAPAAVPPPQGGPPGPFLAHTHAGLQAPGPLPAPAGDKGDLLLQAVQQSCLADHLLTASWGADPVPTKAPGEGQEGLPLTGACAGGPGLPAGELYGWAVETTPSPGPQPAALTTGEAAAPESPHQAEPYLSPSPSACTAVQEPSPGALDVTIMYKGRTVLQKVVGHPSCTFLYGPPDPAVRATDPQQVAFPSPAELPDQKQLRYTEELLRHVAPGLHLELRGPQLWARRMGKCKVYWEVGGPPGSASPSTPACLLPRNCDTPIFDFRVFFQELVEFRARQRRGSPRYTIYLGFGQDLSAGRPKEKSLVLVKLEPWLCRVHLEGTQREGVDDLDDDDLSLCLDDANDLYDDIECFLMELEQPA"}
{"Oligonucleotide": "GACGGTCTCCTACTGCTGCCGTGCTAG", "fitted relative affinity [z-score]": 0.193}
{"Oligonucleotide": "TACTACATATCACCTCAATCGTGCTAG", "fitted relative affinity [z-score]": 1.57}
{"Oligonucleotide": "TCACCTCTTTCACTGGTACTGTGCTAG", "fitted relative affinity [z-score]": 2.25}
{"Oligonucleotide": "GACGATATCAGTCTCGACACGTGCTAG", "fitted relative affinity [z-score]": 0.345}
{"Oligonucleotide": "TTAGATATCGGTCTCGGTTAGTGCTAG", "fitted relative affinity [z-score]": 0.661}
{"Oligonucleotide": "TCACCTTTGAAAGTTGTTACTGTGCTA", "fitted relative affinity [z-score]": 0.9}
{"data": "Series 3", "target": "Sal-like protein 4, full length isoform A (SALL4, Homo sapiens, UniProt Q9UJQ4, residues 1-1053)", "method": "universal PBM", "form": "double-stranded DNA, one strand shown", "sample": "in vitro", "tested at": "600 nM", "setting": "8-mer, flanks averaged, mean of replicates", "direction": "higher = stronger binding", "sequence of UniProt Q9UJQ4 (whole entry, looked up)": "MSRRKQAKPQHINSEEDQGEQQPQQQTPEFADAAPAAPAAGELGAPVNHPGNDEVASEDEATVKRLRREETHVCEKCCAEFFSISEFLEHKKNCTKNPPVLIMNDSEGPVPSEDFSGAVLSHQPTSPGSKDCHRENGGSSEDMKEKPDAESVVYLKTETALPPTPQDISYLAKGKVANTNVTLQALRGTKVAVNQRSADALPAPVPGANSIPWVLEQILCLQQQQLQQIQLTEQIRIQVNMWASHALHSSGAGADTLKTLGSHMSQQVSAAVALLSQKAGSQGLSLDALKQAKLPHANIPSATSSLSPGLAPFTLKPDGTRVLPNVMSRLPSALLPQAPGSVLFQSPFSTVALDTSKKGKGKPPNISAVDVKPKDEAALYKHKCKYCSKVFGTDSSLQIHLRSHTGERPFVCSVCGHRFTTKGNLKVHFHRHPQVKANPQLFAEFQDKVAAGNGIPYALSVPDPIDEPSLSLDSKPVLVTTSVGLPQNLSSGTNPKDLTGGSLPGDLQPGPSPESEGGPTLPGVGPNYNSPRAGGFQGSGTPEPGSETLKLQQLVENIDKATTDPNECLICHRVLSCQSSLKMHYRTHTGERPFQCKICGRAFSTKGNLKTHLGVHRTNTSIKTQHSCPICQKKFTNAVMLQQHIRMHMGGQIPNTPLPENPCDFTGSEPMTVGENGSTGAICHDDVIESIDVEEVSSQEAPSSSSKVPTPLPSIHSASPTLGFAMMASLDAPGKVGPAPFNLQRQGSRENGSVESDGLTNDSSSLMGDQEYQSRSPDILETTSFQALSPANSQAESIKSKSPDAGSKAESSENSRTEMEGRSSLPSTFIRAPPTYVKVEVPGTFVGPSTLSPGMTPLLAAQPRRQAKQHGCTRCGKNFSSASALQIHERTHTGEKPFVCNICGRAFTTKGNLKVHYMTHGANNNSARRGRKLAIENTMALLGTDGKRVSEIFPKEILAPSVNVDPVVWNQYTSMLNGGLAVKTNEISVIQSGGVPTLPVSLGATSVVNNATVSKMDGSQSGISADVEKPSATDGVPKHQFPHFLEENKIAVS"}
{"Oligonucleotide": "ACCAGTTA", "E-score": 0.13}
{"Oligonucleotide": "CTTAGTTC", "E-score": -0.0253}
{"Oligonucleotide": "AATGTCCA", "E-score": 0.0791}
{"Oligonucleotide": "CCTTTACC", "E-score": -0.114}
{"Oligonucleotide": "CCGGACTA", "E-score": -0.188}
{"data": "Further values, each from its own experiment"}
{"Molecule": "PhoQ, residues 284 288 289 292 302 303 TTSMTC", "target": "PhoP, residues 12 14 15 18 19 IFFTR (Escherichia coli, UniProt P23836)", "assay": "Sort-seq, refers to: YFP reporter", "system": "E. coli", "setting": "PhoQ-PhoP variant library, with: 10 µM Mg2+", "scale": "relative to: high Mg2+ state, higher = stronger signaling", "endpoint": "fold induction", "value": 4.64}
{"note": "For quick reference, copied from above (series 2):"}
{"Oligonucleotide": "TTAGATATCGGTCTCGGTTAGTGCTAG", "fitted relative affinity [z-score]": 0.661}
{"Oligonucleotide": "TACTACATATCACCTCAATCGTGCTAG", "fitted relative affinity [z-score]": 1.57}
